{"data": "Measurements pooled from the literature"}
{"Compound": "CC1(C)[C@H](C(=O)OCc2cccc(Oc3ccccc3)c2)[C@@H]1C=C(Cl)Cl", "test": "measured: CYP3A4", "test system": "human, age 6 months, recombinant human CYP3A4", "conditions": "0.1 µM", "measurement": "enzyme contribution to clearance", "result": "0.6%"}
{"Compound": "CCC[C@@](N)(CO)CCc1ccc(OCCCCCC(C)C)cc1", "test system": "male hound dog, plasma", "conditions": "oral, 2.5 mg/kg, solution, median", "measurement": "Tmax", "result": "3.13 h"}
{"Compound": "COc1cccc([C@]2(C)CCN(C[C@@H](NC(=O)[C@H]3Cc4ccc(O)cc4CN3)C(C)C)C[C@@H]2C)c1", "test system": "rat, brain", "conditions": "intraperitoneal, 5 mg/kg", "measurement": "AUCtotal", "result": "1850 ng·h/g"}
{"Compound": "Cn1cc(-c2nc(N[C@@H]3CCCC[C@@H]3N)c(F)c3c2C(=O)NC3)cn1", "test": "measured: any bleeding", "test system": "patients with relapsed or refractory AML", "conditions": "oral, 60 mg twice daily", "measurement": "hemorrhagic adverse events", "result": "63%"}
{"Compound": "CC[C@H](C)[C@H](NC(=O)[C@H](CO)NC(=O)[C@H](CC(N)=O)NC(=O)[C@H](CC(C)C)NC(=O)[C@H](Cc1ccc(O)cc1)NC(=O)[C@H](CCCCN)NC(=O)[C@H](CCCCN)NC(=O)[C@@H](NC(=O)[C@H](C)NC(=O)[C@H](CCSC)NC(=O)[C@H](CCC(N)=O)NC(=O)[C@H](CCCCN)NC(=O)[C@H](CCCN=C(N)N)NC(=O)[C@H](CC(C)C)NC(=O)[C@H](CCCN=C(N)N)NC(=O)[C@@H](NC(=O)[C@H](Cc1ccc(O)cc1)NC(=O)[C@H](CC(N)=O)NC(=O)[C@H](CC(=O)O)NC(=O)[C@@H](NC(=O)[C@H](Cc1ccccc1)NC(=O)[C@@H](NC(=O)[C@H](C)NC(=O)[C@H](CC(=O)O)NC(=O)[C@H](CO)NC(=O)[C@@H](N)Cc1c[nH]cn1)C(C)C)[C@@H](C)O)[C@@H](C)O)C(C)C)C(=O)N[C@@H](CC(C)C)C(=O)N[C@@H](CC(N)=O)C(N)=O", "test": "tail-cuff", "test system": "BALB/c mice", "conditions": "subcutaneous, 2.5 µg/kg", "measurement": "systolic blood pressure decrease", "result": "19.3 mmHg"}
{"Compound": "COc1cc2c(Oc3ccc4[nH]c(C)cc4c3F)ccnc2cc1OCC1(N)CC1", "test system": "paediatric recurrent refractory sarcoma", "conditions": "concentration not given, whole group", "measurement": "grade 1 or 2 Myalgia", "result": "14.7%"}
{"Compound": "COc1ccnc(C(=O)N[C@H]2COC(=O)[C@H](Cc3ccccc3)[C@@H](OC(=O)C(C)C)[C@H](C)OC2=O)c1OCOC(=O)C(C)C", "test": "developmental toxicity", "test system": "rat", "conditions": "highest dose tested", "measurement": "NOAEL", "result": "1040 mg/kg/day"}
{"Compound": "CO[C@H]1C[C@@H]2CC[C@@H](C)[C@@](O)(O2)C(=O)C(=O)N2CCCC[C@H]2C(=O)O[C@H]([C@H](C)C[C@@H]2CC[C@@H](OC(=O)NCCOCCOCCOCCOCCOCCOCCOCCOCCC(=O)N3CCc4cc(Cn5nc(-c6ccc7oc(N)nc7c6)c6c(N)ncnc65)ccc4C3)[C@H](OC)C2)C[C@@H](O)[C@H](C)/C=C(\\C)[C@@H](O)[C@@H](OC)C(=O)[C@H](C)C[C@H](C)/C=C/C=C/C=C/1C", "test system": "patients with advanced solid tumours", "conditions": "intravenous, dose not given, any grade", "measurement": "Pneumonia AE leading to dose reduction", "result": "1.8%"}
{"Compound": "CN1CCN(S(=O)(=O)c2cc([N+](=O)[O-])ccc2N(CCOS(C)(=O)=O)CCOS(C)(=O)=O)CC1", "test system": "naive female NSG mice, plasma", "conditions": "intraperitoneal, 5 mg/kg", "measurement": "elimination rate constant", "result": "0.00161 s⁻¹"}
{"Compound": "CCCSc1ccc2nc(NC(=O)OC)[nH]c2c1", "test system": "mouse, blood", "conditions": "oral, 50 mg/kg, tolerability, mean", "measurement": "alanine aminotransferase", "result": "0.44 U/L"}
{"Compound": "CC(=O)c1c(C)c2cnc(Nc3ccc(C4CCN(CCS(C)(=O)=O)CC4)cn3)nc2n(C2CCCC2)c1=O", "test system": "human, dose-escalation trial, plasma", "conditions": "oral, 150 mg twice daily, day 1, single dose", "measurement": "AUC(0-t)", "result": "3730 ng·h/mL"}
{"Compound": "COc1ncccc1-c1cnn2ccc(N3CCN(C(=O)OC(C)C)CC3)nc12", "test system": "rat, CCI mechanical hyperalgesia model, brain", "conditions": "oral, 30 mg/kg, 210 min", "measurement": "drug concentration", "result": "7.3 µM"}
